# Measured values pooled from the literature.
# A part holds a random share of what one study measured.
# UniProt P93024, sequence (whole entry, looked up): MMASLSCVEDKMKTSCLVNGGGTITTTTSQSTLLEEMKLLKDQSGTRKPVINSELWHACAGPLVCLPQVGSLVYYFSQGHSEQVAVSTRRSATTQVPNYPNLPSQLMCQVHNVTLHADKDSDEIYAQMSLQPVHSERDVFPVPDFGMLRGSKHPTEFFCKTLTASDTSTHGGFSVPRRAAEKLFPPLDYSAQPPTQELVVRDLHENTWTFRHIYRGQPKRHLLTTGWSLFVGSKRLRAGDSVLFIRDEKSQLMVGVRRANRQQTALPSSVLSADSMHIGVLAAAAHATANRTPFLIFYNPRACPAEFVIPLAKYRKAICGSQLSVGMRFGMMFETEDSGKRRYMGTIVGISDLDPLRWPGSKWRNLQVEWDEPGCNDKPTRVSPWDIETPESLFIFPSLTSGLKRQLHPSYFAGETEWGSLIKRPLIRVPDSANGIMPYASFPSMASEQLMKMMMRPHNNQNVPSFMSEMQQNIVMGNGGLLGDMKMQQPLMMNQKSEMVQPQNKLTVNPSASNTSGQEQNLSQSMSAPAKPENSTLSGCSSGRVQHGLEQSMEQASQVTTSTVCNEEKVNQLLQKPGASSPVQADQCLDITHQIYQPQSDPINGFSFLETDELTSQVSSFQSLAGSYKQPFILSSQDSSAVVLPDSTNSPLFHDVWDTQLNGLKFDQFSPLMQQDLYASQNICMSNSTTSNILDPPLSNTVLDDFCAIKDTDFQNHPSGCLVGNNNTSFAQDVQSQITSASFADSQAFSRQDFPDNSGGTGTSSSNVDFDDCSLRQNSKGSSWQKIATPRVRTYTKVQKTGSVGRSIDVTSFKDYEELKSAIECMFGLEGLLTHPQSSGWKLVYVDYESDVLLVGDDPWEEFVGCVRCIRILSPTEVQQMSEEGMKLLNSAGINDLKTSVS

# Block 1
# Target: HLA class I histocompatibility antigen, A alpha chain, allele A*80:01 (Homo sapiens, UniProt P04439)
# Read-out: peptide-MHC binding
# Molecule type: peptide
# Concentration: concentration not given
Molecule,binding
QLKSRAAVL,inactive
GLYLYRFHV,inactive
LIMEFNSLL,inactive
TVIRFWHAM,inactive
GTEKLTITY,inactive
TVYGLGADV,inactive
MVFGRFSFA,inactive
FHEFLSSKL,inactive
LSDAARLFL,inactive
YYFSYPLFV,inactive
NALEKALRW,inactive
IANTTDHFF,inactive
GVEGIGLQY,inactive
YADGGQWYN,inactive
WASGVPAAT,inactive
LQKIPLQWF,inactive
VERRLVKVL,inactive
IVFMWAIHH,inactive
GKLDPTNTL,inactive
QYLFSLTYV,inactive
QIQAGNFHW,inactive
IGKMNKHYK,inactive
GMHDGTVGK,inactive
IRKPKHLYV,inactive
STGKSIKFK,inactive

# Block 2
# Target: RNA binding protein fox-1 homolog 2, RRM domain, GST-SBP tag (RBFOX2, Homo sapiens, UniProt O43251-10, residues 100-194)
# Method: RNA Bind-n-Seq
# Molecule type: RNA
# Sample: in vitro
# Concentration: 365 nM
# Notes: natural RNA segment, single round, ends assumed
# Relative to: no-protein control
# Reading: higher = stronger binding
# Constant ends, left off below: GGGAGUUCUACAGUCCGACGAUC … UGGAAUUCUCGGGUGCCAA
# Construct (chain): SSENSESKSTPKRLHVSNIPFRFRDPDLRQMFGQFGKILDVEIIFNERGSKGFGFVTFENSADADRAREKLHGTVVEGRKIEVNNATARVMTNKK
Oligonucleotide,RBNS enrichment (R)
UGCUUGAAUACAAGUGGCUAAGCCAACAACAGAAUAAAUACUUUUAUAGUAGUUUUAUAAUCCUGAAAUUCGAAAGCUUUCCCAAUUGCACUUGCAUCUAAACAAAACUG,0.617
ACUCUUGGCGGAUCGGUCCAGUGGGUAGAGGGUUUGAUCAACAGAGCCUCACCCUCUCCACCUUUCAGCCUCCAGAGACUUUGGGGAGGGGGUUAAUCAACCCCGCGUGU,0.181
UGUAUCAGAUCCAAAGCUCUAUUGUACAGCAAAUUAUUCUUCAAAGUGAUUAUAACCAGUUACAACCUGUAUUUCUUUUUGCAGCCAGCACAGUGUGAACCAACUCAGAC,0.32
AGAAUCCCAUCCUGCACACAUUGGUUGGUGCCCUGGGUGGAAUAGCAACGACACCAACUGAUAAAAGCACAAGAGAAGUGGGGAACAUCUUGAGUCCUGUUGGACGUGAU,1.08
UACUAACUUAUUUAUGUUAAAAGAUUUUUUUUAAUCUAGACAAUAUACAAGCCAAAGUGGCAUGUUUUGUGCAUUUGUAAAUGCUGUGUUGGGUAGAAUAGGUUUUCCCC,0.708
CAGCUAAUUUUUGUAUUUUUAUAGAGAUGGAGUUUUGCCAUGUUGGCCAGCCUGGUCUUGAACUCUUGAACUCCUGACCUCAGGUAAUCCACCCACCUCAGACUCCCAAA,0.429
UAGUUACUGGUACUGUUGCCAAGCAAUCUGCUUGGAAUUUGUGGAUCCCUGCUGUUCCCUAAUCCCACCCCCUGCCCUGAGACAGUGAAUGUAGUCCGUGAAGGGAGUGC,0.898
ACAUUAAUCAGGAAUACAGAAUGCAGGUCUUCACAUUUACAGGAAGAGCACCUUGUAUAGUAGGUCUGAGUCAAAUAGGACUGAAUUGGUGACAAAGUUUGCACUUACAA,0.317

# Block 3
# Target: Interferon regulatory factor 7, full length, phosphomimetic (IRF7, Homo sapiens, UniProt Q92985, residues 1-503, S101K/S471D/S472D/S475D/S476D/S477D/S483D/S484D/S487D)
# Method: protein-binding microarray
# Molecule type: double-stranded DNA, one strand shown
# Sample: in vitro
# Concentration: 250 nM
# Notes: 60-bp whole probe
# Together with: salmon DNA 0.4 mg/ml
# Relative to: random background probes
# Reading: higher = stronger binding
# Constant ends, left off below: GCCTAGCAC … GTGCTAGGTCTTGATTCGCTTGACGCTGCTG
# Construct (chain): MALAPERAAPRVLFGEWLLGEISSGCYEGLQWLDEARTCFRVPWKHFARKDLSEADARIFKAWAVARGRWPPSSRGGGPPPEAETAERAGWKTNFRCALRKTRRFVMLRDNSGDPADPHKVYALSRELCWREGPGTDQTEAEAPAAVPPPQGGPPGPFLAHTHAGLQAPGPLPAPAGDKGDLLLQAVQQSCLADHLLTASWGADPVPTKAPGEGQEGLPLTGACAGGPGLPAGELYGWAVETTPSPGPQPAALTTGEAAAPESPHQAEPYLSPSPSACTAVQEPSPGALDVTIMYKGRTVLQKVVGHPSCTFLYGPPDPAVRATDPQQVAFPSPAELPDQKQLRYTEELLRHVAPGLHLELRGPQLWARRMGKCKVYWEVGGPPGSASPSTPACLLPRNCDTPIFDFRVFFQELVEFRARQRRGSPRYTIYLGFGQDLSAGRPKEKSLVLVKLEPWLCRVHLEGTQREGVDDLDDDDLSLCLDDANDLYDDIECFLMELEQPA
Oligonucleotide,log fluorescence
AAAATTTTAACCCTTATTCT,0.141 z-score
TTTGATTTCAGTTCCGATTA,1.64 z-score
TAAGGTATCGGTATCGGTTA,2.96 z-score
TCAGTTTTGTTTTTCATACT,5.07 z-score
GACGATATCAGTCTCGAGAC,0.292 z-score
GTAGATTTCAGTATCGATTA,0.815 z-score
GACGATATCAGGTTCGAGAC,0.363 z-score
TCAATTTTCTAAATTCCACT,0.682 z-score

# Block 4
# Target: Histone acetyltransferase KAT6A, both winged helices, GST fusion (KAT6A, Homo sapiens, UniProt Q92794, residues 1-181)
# Method: protein binding microarray
# Molecule type: double-stranded DNA, one strand shown
# Sample: in vitro
# Concentration: not given
# Notes: 8-mer, flanks averaged, mean of 2 arrays, mostly near background
# Relative to: not given
# Reading: higher = stronger binding
# Target sequence (chain): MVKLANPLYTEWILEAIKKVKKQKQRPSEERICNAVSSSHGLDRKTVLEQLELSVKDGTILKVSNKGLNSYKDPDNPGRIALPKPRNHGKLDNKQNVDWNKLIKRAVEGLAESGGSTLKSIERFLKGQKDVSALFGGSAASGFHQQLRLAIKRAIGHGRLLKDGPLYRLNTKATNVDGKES
Oligonucleotide,E-score
ACCACGGG,0.104
CCTGGGGC,-0.0892
ATCTGTGA,0.00515
ACCCGGAA,0.183
GCGCCACC,0.141
GCGTATAA,0.205
AATCTCGT,-0.0939
TCCCATAA,-0.118

# Further values, each from its own experiment
# B1: ARF2 727-859 (Arabidopsis thaliana, UniProt Q94JM3); chain TKTNSSRSCTKVHKQGIALGRSVDLSKFQNYEELVAELDRLFEFNGELMAPKKDWLIVYTDEENDMMLVGDDPWQEFCCMVRKIFIYTKEEVRKMNPGTLSCRSEEEAVVGEGSDAKDAKSASNPSLSSAGNS
Substance,tested on,assay,test system,setting,how to read,quantity,value
B1 (ARF2 727-859),"ARF5 788-902 (Arabidopsis thaliana, UniProt P93024)",two-hybrid,,,"relative to: out of 2 tests, higher = firmer interaction",positive tests,0
O=C1CCC(N2Cc3c(ccc4c3OCC43CCN(Cc4ccccc4)CC3)C2=O)C(=O)N1 (stereo not shown),,,"ICR mouse, male, plasma","intravenous, 1.0 mg/kg",,MRT(0-inf),1.64 h
CCOCCn1cc(C(=O)Nc2ccc(-n3nc(-c4cccnc4)cc3C(F)(F)F)cn2)ccc1=O,"SLC6A4 (Homo sapiens, UniProt P31645)","binding, radioligand binding",,10 µM,,inhibition,8.63%
